# Assay results of several laboratories.
# Every numbered part comes from another study and shows a few of its results, in no order. Values joined by “and” are separate records of one study, mostly repeats; a detail may differ.
# UniProt Q9H2X6, sequence (whole entry, looked up): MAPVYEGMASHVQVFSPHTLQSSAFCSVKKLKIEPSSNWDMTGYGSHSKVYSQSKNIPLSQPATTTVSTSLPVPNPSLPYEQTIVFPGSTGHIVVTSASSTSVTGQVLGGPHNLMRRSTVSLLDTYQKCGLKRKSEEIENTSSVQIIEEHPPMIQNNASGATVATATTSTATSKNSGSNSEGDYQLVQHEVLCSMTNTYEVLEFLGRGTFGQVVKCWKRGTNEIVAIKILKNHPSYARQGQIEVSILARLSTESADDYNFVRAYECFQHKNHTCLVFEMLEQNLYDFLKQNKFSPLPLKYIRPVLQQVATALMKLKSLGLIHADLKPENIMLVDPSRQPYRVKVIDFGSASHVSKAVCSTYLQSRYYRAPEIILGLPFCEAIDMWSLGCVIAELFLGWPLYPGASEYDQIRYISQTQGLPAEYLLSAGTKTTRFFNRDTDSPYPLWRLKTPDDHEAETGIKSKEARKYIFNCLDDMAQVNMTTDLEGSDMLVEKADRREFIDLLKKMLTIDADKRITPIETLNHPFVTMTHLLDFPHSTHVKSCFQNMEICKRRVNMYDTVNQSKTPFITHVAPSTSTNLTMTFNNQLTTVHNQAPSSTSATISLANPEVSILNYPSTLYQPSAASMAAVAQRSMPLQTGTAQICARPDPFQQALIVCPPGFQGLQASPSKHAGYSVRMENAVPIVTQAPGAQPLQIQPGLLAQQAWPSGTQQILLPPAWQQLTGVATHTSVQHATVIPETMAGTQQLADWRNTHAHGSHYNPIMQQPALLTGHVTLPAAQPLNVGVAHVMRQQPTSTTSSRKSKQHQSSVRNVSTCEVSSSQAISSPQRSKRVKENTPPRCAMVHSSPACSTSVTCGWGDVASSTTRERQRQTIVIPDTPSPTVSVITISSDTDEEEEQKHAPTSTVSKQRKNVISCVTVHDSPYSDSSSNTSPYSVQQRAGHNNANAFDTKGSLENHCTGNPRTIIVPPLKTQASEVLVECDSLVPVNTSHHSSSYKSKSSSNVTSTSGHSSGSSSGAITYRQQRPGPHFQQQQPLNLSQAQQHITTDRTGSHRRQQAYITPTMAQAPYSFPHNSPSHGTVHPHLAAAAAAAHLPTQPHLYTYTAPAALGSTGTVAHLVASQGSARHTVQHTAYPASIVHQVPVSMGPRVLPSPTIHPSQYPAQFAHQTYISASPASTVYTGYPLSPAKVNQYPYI
# UniProt P51451, sequence (whole entry, looked up): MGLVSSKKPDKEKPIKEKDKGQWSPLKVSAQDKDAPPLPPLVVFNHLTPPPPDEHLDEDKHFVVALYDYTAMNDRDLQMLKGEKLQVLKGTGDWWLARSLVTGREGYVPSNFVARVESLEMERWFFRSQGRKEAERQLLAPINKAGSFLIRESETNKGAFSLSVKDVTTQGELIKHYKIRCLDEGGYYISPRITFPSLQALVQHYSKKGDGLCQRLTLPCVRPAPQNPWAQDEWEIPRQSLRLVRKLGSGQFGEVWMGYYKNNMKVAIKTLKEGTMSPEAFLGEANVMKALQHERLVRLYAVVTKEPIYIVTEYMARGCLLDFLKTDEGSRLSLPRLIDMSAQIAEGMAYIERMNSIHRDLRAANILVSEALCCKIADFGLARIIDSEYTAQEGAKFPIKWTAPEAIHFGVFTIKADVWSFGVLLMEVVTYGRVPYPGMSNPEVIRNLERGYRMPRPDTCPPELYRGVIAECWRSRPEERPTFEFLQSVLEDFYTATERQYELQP
# UniProt P18089, sequence (whole entry, looked up): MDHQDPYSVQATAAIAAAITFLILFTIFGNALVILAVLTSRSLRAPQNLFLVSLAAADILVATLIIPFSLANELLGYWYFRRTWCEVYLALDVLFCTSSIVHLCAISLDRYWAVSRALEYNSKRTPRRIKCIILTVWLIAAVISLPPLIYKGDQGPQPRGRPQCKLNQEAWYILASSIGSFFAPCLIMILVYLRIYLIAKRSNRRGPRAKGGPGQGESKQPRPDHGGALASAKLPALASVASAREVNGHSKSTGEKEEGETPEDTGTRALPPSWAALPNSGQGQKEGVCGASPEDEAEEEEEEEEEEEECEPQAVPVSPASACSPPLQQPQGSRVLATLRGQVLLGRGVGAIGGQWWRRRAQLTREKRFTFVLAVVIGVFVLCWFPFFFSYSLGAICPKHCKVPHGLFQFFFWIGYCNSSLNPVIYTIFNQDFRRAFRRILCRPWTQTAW
# UniProt O75716, sequence (whole entry, looked up): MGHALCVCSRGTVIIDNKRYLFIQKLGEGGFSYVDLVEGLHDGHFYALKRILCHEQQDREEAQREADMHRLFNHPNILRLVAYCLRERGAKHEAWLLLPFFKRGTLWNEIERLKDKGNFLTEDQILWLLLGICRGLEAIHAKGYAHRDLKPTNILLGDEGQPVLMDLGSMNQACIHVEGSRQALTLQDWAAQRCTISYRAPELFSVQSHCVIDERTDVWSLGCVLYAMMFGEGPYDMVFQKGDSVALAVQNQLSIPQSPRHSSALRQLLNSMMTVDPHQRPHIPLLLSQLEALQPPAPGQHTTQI
# UniProt O15530, sequence (whole entry, looked up): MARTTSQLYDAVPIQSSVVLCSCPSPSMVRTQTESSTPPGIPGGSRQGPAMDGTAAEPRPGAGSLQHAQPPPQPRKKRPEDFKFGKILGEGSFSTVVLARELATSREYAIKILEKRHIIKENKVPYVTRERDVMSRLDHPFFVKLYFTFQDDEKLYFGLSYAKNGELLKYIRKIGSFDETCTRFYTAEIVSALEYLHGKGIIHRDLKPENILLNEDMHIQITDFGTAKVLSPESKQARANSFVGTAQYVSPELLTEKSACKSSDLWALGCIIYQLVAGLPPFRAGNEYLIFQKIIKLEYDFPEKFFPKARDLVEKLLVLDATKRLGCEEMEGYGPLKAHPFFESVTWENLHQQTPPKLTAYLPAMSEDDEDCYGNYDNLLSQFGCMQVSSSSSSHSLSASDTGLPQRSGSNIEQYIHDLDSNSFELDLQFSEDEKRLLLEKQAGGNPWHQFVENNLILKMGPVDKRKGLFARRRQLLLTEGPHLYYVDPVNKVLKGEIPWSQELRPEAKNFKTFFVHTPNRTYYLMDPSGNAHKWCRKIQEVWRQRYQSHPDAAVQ
# UniProt P46098, sequence (whole entry, looked up): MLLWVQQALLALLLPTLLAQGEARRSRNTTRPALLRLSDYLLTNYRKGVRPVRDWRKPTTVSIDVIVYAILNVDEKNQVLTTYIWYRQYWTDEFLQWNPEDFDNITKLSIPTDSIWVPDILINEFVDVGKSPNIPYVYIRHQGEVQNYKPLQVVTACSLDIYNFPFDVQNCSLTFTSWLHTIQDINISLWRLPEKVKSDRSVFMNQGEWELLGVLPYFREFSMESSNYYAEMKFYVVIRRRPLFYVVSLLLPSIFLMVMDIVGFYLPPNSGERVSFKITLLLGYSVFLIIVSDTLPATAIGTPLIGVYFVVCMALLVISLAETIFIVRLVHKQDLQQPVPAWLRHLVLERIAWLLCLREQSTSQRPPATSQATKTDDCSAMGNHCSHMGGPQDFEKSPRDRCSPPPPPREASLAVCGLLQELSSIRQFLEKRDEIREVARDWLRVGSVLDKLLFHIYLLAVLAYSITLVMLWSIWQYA
# UniProt Q8NE63, sequence (whole entry, looked up): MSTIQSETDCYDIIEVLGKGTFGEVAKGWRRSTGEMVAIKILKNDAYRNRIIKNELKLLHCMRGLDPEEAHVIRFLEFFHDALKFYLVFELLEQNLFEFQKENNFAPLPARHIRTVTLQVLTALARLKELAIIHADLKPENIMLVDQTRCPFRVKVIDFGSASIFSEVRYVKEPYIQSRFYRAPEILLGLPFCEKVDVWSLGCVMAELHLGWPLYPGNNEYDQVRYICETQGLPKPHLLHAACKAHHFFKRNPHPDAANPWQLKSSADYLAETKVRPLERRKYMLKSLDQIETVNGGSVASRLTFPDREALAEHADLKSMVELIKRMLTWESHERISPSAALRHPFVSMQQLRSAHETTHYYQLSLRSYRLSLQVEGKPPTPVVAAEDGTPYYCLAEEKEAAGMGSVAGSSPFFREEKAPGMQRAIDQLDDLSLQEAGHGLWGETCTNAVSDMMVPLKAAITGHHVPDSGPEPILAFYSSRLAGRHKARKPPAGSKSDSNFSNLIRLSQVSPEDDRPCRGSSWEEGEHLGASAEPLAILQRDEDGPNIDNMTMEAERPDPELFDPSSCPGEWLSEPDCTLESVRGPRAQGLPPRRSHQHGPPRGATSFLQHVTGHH
# UniProt Q9UEE5, sequence (whole entry, looked up): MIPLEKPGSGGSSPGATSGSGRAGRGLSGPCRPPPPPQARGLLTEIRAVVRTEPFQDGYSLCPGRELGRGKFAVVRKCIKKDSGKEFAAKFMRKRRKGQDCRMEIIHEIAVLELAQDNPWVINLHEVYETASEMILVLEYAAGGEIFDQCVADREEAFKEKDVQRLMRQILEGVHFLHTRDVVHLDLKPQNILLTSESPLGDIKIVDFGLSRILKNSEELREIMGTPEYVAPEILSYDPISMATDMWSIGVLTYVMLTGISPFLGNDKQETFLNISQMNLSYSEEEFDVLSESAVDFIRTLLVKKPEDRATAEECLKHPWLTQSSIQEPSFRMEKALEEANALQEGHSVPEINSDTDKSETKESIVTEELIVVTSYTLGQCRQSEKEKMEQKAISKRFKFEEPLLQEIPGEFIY

# Sample 1
# SMILES: COC[C@H]1OC(=O)c2coc3c2[C@@]1(C)C1=C(C3=O)[C@@H]2CCC(=O)[C@@]2(C)C[C@H]1OC(C)=O
# Read-out: enzyme activity
# Action: inhibitor
# Concentration: 0.5 µM
# Baseline: control
target,remaining activity [%]
"STK17A (Homo sapiens, UniProt Q9UEE5)",96.2
"RPS6KA6 (Homo sapiens, UniProt Q9UK32)",96.7
"Cyclin-dependent kinase 6, with cyclin D3 (CDK6, Homo sapiens, UniProt Q00534)",85.8
"PHKG1 (Homo sapiens, UniProt Q16816)",92.6
"MAP4K4 (Homo sapiens, UniProt O95819)",93
"EPHB1 (Homo sapiens, UniProt P54762)",89.9
"BLK (Homo sapiens, UniProt P51451)",87.8
"HIPK2 (Homo sapiens, UniProt Q9H2X6)",99.6
"Cyclin-dependent kinase 4, with cyclin D3 (CDK4, Homo sapiens, UniProt P11802)",98.8
"STK16 (Homo sapiens, UniProt O75716)",88.8
"AXL (Homo sapiens, UniProt P30530)",99
"HIPK4 (Homo sapiens, UniProt Q8NE63)",99.3
"PDPK1 (Homo sapiens, UniProt O15530)",96.5
"EPHB4 (Homo sapiens, UniProt P54760)",96.8
"Cyclin-dependent kinase 1, with cyclin B (CDK1, Homo sapiens, UniProt P06493)",101

# Sample 2
# Target: Calcium/calmodulin-dependent protein kinase type II subunit alpha (CAMK2A, Homo sapiens, UniProt Q9UQM7)
# UniProt Q9UQM7, sequence (whole entry, looked up): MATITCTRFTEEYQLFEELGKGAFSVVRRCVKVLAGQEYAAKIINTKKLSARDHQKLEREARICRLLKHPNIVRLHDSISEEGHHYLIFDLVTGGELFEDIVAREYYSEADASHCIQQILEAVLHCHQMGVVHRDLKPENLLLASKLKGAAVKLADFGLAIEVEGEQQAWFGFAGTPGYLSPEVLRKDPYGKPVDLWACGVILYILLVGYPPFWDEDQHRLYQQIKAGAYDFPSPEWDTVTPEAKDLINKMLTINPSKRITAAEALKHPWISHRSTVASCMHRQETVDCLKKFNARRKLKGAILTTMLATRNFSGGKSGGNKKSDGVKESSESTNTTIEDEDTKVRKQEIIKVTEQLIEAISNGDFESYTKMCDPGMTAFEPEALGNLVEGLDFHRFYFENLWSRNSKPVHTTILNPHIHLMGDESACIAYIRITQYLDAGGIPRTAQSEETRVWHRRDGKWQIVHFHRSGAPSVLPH
# Read-out: enzyme activity
# Action: inhibitor
# Concentration: 10 µM
SMILES,inhibition
O=C(O)Cc1cnc[nH]1,-7%
CC1=C(O)C(=O)C=C2C1=CC=C1[C@@]2(C)CC[C@@]2(C)[C@@H]3C[C@](C)(C(=O)O)CC[C@]3(C)CC[C@]12C,-38%
CCCCCCC(=O)CCCCCC/C=C/C[C@@H](O)[C@H](O)[C@@](N)(CO)C(=O)O,0%
C=C(CO)C(=O)O[C@H]1CC(=C)[C@@H]2C[C@H](O)C(=C)[C@@H]2[C@H]2OC(=O)C(=C)[C@@H]21,3%

# Sample 3
# Host: human
# Medium: microsomes or S9
# Concentration: 2 µM
# Time: 0.5 h
SMILES,remaining compound [%]
COc1ccc2c(c1)C1(CCN(C(=O)c3ccc(C#N)cc3)C1)C(=O)N2 (centres unmarked),55.4
Cc1nn(C)c2ncnc(N3CCN4CCCC4C3)c12 (centres unmarked),87.9
CC(C)NC(=O)c1cc(Cl)cc(Cl)c1NC(=O)c1cc(OCC(=O)C(C)(C)C)nn1-c1ncccc1Cl,62.5
Cc1cc(Br)c2[nH]cc(CCN)c2c1,6.55
Cn1nc(-c2cccc3c2CCNC3)c2c(Cl)cccc21,73.7

# Sample 4
# Cell line: A-375
# Concentration: 100 µM
# Time: 18 h
SMILES,viability [%]
COP(=O)(OC)C(O)C(Cl)(Cl)Cl (centres unmarked),97.5
C[C@]12CC[C@H]3[C@@H](CCC4=CC(=O)CC[C@@]43C)[C@@H]1CC[C@@H]2OC(=O)CCc1ccccc1,17.9
CC(C)NCC(O)c1ccccc1Cl (centres unmarked),88
C[C@@H]1[C@H](O)[C@@H](C)/C=C/C=C/CC/C=C/C=C/C=C/C=C/[C@H](O[C@H]2O[C@@H](C)[C@H](O)[C@@H](N)[C@H]2O)C[C@@H]2O[C@](O)(C[C@@H](O)[C@H](O)CC[C@@H](O)C[C@@H](O)C[C@@H](O)CC(=O)O[C@H]1C)C[C@H](O)[C@H]2C(=O)O,62.7

# Mixed results
SMILES,tested on,assay,test system,conditions,how to read,quantity,value
N#CC1(c2ccccn2)CCN(Cc2cc(C(=O)O)c(=O)n3ccccc23)CC1,"HTR3A (Homo sapiens, UniProt P46098)",cell-free assay,,10 µM,,inhibition,12%
Cc1cc(-n2nc(Cc3cc(F)cc(C(F)(F)F)c3)nc2C)ccc1C(N)=O,"pknB (Mycobacterium tuberculosis, UniProt P9WI81)","cell-free assay, competition with immobilised ligand",,1 µM,,remaining binding,78%
Cc1cc(NC(=O)c2cccc(S(F)(F)(F)(F)F)c2)cc(-n2ccn3nc(-c4cccnc4)cc23)c1,normal organoid sample H,CellTiter-Glo,human,"1 µM, 4 days",baseline: DMSO,viability,82% and 85.4%
Cc1c(N2CCNCC2)nc2ccc(Br)cc2c1C(=O)NC[C@H](CCC(=O)O)c1ccccc1Cl,"ADRA2B (Homo sapiens, UniProt P18089)",ligand displacement,,10 µM,,inhibition,-3.2%

# A few entries again (mixed results):
SMILES,tested on,assay,test system,conditions,how to read,quantity,value
N#CC1(c2ccccn2)CCN(Cc2cc(C(=O)O)c(=O)n3ccccc23)CC1,"HTR3A (Homo sapiens, UniProt P46098)",cell-free assay,,10 µM,,inhibition,12%
Cc1cc(-n2nc(Cc3cc(F)cc(C(F)(F)F)c3)nc2C)ccc1C(N)=O,"pknB (Mycobacterium tuberculosis, UniProt P9WI81)","cell-free assay, competition with immobilised ligand",,1 µM,,remaining binding,78%
Cc1cc(NC(=O)c2cccc(S(F)(F)(F)(F)F)c2)cc(-n2ccn3nc(-c4cccnc4)cc23)c1,normal organoid sample H,CellTiter-Glo,human,"1 µM, 4 days",baseline: DMSO,viability,82% and 85.4%
Cc1c(N2CCNCC2)nc2ccc(Br)cc2c1C(=O)NC[C@H](CCC(=O)O)c1ccccc1Cl,"ADRA2B (Homo sapiens, UniProt P18089)",ligand displacement,,10 µM,,inhibition,-3.2%
